Experimental data collected from several papers.
A part holds a random share of what one study measured.
Chain of UniProt Q9UBF8 (whole entry, looked up): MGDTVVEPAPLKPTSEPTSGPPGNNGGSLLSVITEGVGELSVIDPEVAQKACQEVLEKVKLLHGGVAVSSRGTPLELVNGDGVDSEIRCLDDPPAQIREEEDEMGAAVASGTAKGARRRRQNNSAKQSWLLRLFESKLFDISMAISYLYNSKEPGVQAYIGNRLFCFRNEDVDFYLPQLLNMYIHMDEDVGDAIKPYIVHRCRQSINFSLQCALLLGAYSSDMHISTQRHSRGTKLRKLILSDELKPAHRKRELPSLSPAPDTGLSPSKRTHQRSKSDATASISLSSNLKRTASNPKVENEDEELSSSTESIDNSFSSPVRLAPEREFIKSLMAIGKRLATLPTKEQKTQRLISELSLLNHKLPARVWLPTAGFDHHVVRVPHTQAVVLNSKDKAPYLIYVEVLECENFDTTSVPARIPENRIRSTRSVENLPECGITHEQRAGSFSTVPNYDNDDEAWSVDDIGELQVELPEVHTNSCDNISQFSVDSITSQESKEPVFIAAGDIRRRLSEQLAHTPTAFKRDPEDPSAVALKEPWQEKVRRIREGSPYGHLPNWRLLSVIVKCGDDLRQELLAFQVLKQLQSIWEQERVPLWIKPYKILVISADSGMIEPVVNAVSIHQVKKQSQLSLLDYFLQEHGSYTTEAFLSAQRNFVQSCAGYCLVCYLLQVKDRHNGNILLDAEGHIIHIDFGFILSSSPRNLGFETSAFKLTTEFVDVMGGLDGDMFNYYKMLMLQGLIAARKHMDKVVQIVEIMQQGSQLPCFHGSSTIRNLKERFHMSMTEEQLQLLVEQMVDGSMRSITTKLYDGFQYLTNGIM
Chain of UniProt Q9H4B4 (whole entry, looked up): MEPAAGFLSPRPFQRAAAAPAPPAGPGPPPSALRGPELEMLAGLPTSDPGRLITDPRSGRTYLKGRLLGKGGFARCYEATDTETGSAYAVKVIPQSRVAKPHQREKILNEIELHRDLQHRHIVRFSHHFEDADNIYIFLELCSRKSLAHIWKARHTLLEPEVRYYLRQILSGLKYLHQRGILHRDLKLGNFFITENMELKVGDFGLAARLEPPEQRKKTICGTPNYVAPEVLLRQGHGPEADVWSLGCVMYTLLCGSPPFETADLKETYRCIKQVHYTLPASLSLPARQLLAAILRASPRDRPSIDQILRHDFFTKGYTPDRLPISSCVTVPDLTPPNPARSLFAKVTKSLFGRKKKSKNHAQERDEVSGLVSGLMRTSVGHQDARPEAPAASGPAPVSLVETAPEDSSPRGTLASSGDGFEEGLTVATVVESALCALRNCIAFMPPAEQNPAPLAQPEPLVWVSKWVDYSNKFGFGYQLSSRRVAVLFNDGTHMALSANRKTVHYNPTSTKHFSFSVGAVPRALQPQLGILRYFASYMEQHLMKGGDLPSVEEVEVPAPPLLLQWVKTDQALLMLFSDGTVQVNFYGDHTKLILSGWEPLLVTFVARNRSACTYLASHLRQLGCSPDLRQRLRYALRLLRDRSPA
Chain of UniProt P42336 (whole entry, unmodified, looked up): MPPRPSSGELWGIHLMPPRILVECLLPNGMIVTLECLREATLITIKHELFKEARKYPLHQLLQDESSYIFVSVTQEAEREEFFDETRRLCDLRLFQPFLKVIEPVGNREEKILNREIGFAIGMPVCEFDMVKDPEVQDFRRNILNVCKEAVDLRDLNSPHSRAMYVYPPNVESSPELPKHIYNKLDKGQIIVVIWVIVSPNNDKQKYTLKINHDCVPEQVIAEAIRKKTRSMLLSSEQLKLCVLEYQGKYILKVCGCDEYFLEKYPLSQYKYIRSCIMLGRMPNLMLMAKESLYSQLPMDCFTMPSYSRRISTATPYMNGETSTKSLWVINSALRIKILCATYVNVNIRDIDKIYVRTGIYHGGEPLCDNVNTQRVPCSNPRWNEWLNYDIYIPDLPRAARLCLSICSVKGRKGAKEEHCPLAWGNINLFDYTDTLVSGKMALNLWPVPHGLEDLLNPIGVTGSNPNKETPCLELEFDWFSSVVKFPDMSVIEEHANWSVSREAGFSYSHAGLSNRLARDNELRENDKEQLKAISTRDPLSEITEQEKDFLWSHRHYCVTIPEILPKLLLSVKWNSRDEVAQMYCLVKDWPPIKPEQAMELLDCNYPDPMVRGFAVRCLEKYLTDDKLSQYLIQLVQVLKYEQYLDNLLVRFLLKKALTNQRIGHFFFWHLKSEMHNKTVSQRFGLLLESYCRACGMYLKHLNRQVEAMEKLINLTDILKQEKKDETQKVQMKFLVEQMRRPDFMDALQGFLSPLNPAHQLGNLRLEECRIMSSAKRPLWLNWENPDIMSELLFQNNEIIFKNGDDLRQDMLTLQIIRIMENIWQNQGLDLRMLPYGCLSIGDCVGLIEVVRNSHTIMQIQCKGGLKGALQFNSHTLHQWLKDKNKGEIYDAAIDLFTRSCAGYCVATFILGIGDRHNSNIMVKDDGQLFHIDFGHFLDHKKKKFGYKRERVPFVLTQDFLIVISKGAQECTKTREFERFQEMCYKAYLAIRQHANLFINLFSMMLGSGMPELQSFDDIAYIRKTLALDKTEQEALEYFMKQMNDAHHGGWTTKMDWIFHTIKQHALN
Chain of UniProt P50613 (whole entry, looked up): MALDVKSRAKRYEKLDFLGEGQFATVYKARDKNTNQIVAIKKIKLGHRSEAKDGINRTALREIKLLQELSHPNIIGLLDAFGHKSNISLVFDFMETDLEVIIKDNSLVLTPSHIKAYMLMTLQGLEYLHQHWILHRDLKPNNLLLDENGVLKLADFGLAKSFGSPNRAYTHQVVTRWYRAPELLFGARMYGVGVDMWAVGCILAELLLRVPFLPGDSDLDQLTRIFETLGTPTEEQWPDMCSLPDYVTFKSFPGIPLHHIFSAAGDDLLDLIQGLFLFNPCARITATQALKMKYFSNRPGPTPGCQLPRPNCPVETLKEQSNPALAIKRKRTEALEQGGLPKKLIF
Chain of UniProt Q9UPE1 (whole entry, looked up): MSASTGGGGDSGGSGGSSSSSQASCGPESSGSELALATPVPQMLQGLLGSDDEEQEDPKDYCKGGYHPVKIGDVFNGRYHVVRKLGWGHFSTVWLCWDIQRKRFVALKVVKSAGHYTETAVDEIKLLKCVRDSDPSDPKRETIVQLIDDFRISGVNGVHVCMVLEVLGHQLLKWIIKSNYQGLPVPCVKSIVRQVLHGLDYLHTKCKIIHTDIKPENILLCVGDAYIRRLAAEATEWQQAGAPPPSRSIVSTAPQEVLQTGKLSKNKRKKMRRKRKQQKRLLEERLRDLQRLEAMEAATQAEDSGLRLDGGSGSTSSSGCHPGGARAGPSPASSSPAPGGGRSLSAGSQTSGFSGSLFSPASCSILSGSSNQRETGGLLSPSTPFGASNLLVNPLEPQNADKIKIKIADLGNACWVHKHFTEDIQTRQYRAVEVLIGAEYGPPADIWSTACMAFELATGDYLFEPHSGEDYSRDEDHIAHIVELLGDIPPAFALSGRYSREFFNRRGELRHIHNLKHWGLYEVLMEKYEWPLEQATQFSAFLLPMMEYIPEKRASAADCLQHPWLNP

Sample 1 — read-out: enzyme activity; action: inhibitor; concentration: 0.5 µM; relative to: control
Target: Tyrosine-protein kinase receptor UFO (AXL, Homo sapiens, UniProt P30530)
Chain of UniProt P30530 (whole entry, looked up): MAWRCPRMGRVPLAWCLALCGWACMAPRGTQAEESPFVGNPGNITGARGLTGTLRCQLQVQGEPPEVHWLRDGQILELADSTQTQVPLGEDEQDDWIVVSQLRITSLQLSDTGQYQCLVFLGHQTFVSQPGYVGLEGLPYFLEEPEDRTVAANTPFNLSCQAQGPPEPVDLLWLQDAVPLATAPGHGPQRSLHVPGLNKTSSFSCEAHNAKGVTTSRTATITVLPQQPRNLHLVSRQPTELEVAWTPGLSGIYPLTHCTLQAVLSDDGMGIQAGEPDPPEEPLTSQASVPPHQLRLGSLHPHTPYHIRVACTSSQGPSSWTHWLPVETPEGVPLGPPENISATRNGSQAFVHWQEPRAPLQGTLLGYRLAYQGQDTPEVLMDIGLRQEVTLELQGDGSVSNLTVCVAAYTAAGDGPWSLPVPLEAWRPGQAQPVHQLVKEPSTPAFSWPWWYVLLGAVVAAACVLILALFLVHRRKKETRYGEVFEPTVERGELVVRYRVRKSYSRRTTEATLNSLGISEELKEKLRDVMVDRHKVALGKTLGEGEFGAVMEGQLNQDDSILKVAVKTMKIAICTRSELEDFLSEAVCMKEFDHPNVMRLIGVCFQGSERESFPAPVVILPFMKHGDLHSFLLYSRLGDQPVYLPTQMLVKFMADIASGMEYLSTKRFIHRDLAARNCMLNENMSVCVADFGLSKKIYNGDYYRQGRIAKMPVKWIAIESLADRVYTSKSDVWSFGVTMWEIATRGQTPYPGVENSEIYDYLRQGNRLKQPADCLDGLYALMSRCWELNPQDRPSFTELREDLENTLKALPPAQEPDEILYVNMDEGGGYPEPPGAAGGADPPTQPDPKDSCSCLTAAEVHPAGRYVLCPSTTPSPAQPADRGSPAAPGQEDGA
For `Cc1ccc(NC(=O)c2ccc(CN3CCN(C)CC3)cc2)cc1Nc1nc(-c2cccnc2)cs1`, the remaining activity was 86.5%.
The remaining activity of `Oc1ccc(-c2nc(-c3ccncc3)c(-c3ccc(F)cc3)[nH]2)cc1` is reported as 99.8%.
The remaining activity of `Nc1ncnc2n[nH]c(Nc3ccc(F)cc3)c12` is reported as 45.4%.
The remaining activity of `O=C(Nc1cccc(Nc2cc(Nc3cccc(C(F)(F)F)c3)ncn2)c1)C1CC1` is reported as 98.7%.
With `O=S(=O)(c1cccc2cnccc12)N1CCCNCC1` the remaining activity was 97.2%.
`C#Cc1cccc(Nc2ncnc3cc(OCCOC)c(OCCOC)cc23)c1` gave a remaining activity of 72.5%.
For `CC(C)[C@H](CO)Nc1nc(Nc2cc(N)cc(Cl)c2)c2ncn(C(C)C)c2n1`, the remaining activity was 93.1%.
For `COc1cc2ncnc(Nc3ccc(F)c(Cl)c3)c2cc1OCCCN1CCOCC1`, the remaining activity was 88.8%.
With `NCCNc1ncc(C(N)=O)c(Nc2cccc(C(F)(F)F)c2)n1` the remaining activity was 98.4%.
The remaining activity of `CN(C)c1ccc(C=C2C(=O)Nc3ccccc32)cc1` is reported as 93.8%.
`O=C1NC(=O)C(c2cn(CCCO)c3ncccc23)=C1c1cnccn1` gave a remaining activity of 104%.

Sample 2 — read-out: cell-free assay; technique: competition with immobilised ligand; concentration: 1 µM
SMILES: CN(C(=O)c1ccccc1)c1cc(N(C)c2ccc3c(c2)CCc2ccc(C(=O)NCCN4CCOCC4)cc2C3=O)ccc1F
The remaining binding was 100% (PLK3 (Homo sapiens, UniProt Q9H4B4)).
The remaining binding was 100% (SRPK3 (Homo sapiens, UniProt Q9UPE1)).
For CDK7 (Homo sapiens, UniProt P50613): remaining binding read 100%.
PI4KB (Homo sapiens, UniProt Q9UBF8) — remaining binding: 100%.
It gave 73% for remaining binding (PIK3CA (Homo sapiens, UniProt P42336, H1047L)).

Sample 3 — species: mouse; sample: microsomes or S9; concentration: 2 µM; time: 0.5 h
`CN(Cc1ccccc1-n1cccn1)C(=O)CN1CC2(CCCC2)CC1=O` has a remaining compound of 1.13%.
`CC(C)n1cncc1CN1CC[C@H]2OCc3cnnn3[C@H]2C1` has a remaining compound of 77%.
For `CC(=O)Nc1nc(-c2cnc3ccc(Cl)cn23)c(C)s1`, the remaining compound was 22.4%.
`Cn1nc(C2CCN(C(=O)[C@H]3CC(=O)NC(=O)N3)CC2)n(-c2ccccc2)c1=O` has a remaining compound of 77.8%.
The remaining compound of `Cc1ccc(N(C(C)C(=O)N2CCN(C)CC2)S(C)(=O)=O)cc1C` (stereo not shown) is reported as 41.5%.
The remaining compound of `c1ccc2c(c1)CC(CNc1nccc(-n3cccn3)n1)CO2` (stereo not shown) is reported as 0.0455%.

Sample 4 — technique: phase 2a trial; species: idiopathic pulmonary fibrosis patients; dose: dose not given
Structure (SMILES): CC(C)n1cnc(-c2ccc(F)cc2)c1-c1ncc(C(=O)Nc2ccc(N3CCN(C)CC3)cc2)[nH]1
It gave 0% for “patients with coronary arteriosclerosis” (adverse event grade 2, all dose arms pooled).
The “patients with coronary arteriosclerosis” was 0% (adverse event grade 1, all dose arms pooled).
The “patients with coronary arteriosclerosis” was 0% (adverse event grade 5, all dose arms pooled).

Repeated from above (sample 2):
The remaining binding was 100% (SRPK3 (Homo sapiens, UniProt Q9UPE1)).
It gave 73% for remaining binding (PIK3CA (Homo sapiens, UniProt P42336, H1047L)).
The remaining binding was 100% (PLK3 (Homo sapiens, UniProt Q9H4B4)).
